# Assay results pooled from the literature.
# Compare with care: the assays were run in different laboratories. Numbers after ± are the reported error.
# Chain of UniProt P10635 (whole entry, looked up): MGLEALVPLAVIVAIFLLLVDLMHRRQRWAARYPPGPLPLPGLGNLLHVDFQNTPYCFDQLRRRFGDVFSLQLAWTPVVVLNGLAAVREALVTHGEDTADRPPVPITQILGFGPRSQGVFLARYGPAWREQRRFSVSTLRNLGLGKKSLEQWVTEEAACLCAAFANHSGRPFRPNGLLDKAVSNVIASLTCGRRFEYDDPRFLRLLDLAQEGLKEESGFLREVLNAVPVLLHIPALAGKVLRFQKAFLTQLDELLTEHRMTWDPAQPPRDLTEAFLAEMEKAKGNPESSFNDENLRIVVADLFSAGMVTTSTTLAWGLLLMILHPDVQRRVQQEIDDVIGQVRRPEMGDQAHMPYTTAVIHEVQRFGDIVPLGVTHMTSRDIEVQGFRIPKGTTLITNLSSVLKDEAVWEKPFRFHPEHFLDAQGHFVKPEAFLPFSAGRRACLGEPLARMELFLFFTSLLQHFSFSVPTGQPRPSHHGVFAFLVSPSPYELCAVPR
Structure (SMILES),tested on,test,test system,conditions,how to read,endpoint,result
C=C(NC(=O)c1csc(-c2nc3c(cc2O)-c2nc(cs2)C(=O)NC(C(C)O)C(=O)NC(=C(C)OC)c2nc(cs2)C(=O)NC2c4nc(cs4)C(=O)NC(COC(=O)c4c5c6c(cccc6n4O)COC(=O)C(OC4CC(C)(O)C(N(C)C)C(C)O4)C2OC5)c2nc-3cs2)n1)C(N)=O (centres unmarked),,,"Sprague-Dawley rat, male, plasma","intravenous infusion, 6 mg/kg, multiple doses, day 1",,MRT(0-last),1.66 h
CCN(CC)CC#CCNc1ccnc2cc(Cl)ccc12,Salmonella typhimurium,mini-Ames test,TA1535,"62.5 µg/well, without S9",,revertants per well,3
CNC(=O)C1CCCN(C(=O)C2CC3CCC2N3C(=O)[C@@H]2C[C@@H](O)CN2C(=O)NCc2cccc(Cl)c2F)C1 (mixture of isomers),"Cytochrome P450 2D6 (CYP2D6, Homo sapiens, UniProt P10635)","enzyme activity, inhibitor, time-dependent inhibition",,"5.56 µM, preincubated without NADPH",,dextrorphan formation,150 ng/mL
N#C[C@@H]1CC(F)(F)CN1C(=O)CNC(=O)c1ccnc2c(NC(=O)[C@@H](N)CCCCNC(=O)CCOCCOCCOCCOCCOCCOCCNC(=O)CN3CCN(CC(=O)[O-])CCN(CC(=O)[O-])CCN(CC(=O)[O-])CC3)cccc12.[177Lu+3],U-87 MG tumour model,,"host not given, liver","24 h, tumour-bearing",,tracer uptake,0.23 %ID/g
CC(C)OCCOCc1ccc(OCC(O)CN(N=O)C(C)C)cc1 (centres unmarked),Salmonella typhimurium,Ames test,TA98,"5000 µg/plate, 30 % rat S9",reference: solvent control,revertant fold increase,0.6 fold
O=C1C2CC3CC1CC(C(=O)N1CCN(c4ccc([N+](=O)[O-])c5ncccc45)CC1)(C3)C2,Salmonella typhimurium,Ames test,TA100,"0.13 µg/well, with S9",,mean revertant colonies,26 colonies/well
Cc1nc(N)nc2c1C(=O)N[C@@H](c1ccc(F)cc1-c1cccc(O[11CH3])n1)C2,,ex vivo biodistribution,"mice, U87 subcutaneous xenograft, lungs","60 min post-injection, baseline, vehicle pre-treatment",,tracer uptake,1.9 ± 0.2 %ID
O=C(Nc1cnccc1-c1ccc([18F])cc1)c1ccnc(NC(=O)C2CC2)c1,,"ex vivo biodistribution, gamma counting","GSK-3β overexpressing transgenic mouse, late stage, pancreas","intravenous, 1.26 MBq/animal, 120 min post-injection",,mean SUV,0.36

# A few entries again:
Structure (SMILES),tested on,test,test system,conditions,how to read,endpoint,result
Cc1nc(N)nc2c1C(=O)N[C@@H](c1ccc(F)cc1-c1cccc(O[11CH3])n1)C2,,ex vivo biodistribution,"mice, U87 subcutaneous xenograft, lungs","60 min post-injection, baseline, vehicle pre-treatment",,tracer uptake,1.9 ± 0.2 %ID
